Measurements pooled from the literature.
Compare with care: the assays were run in different laboratories. Numbers after ± are the reported error.
gyrB with GyrA: DNA gyrase subunit B, with GyrA (gyrB, Mycobacterium tuberculosis, UniProt P9WG45)
Sequence of UniProt P9WG45 (whole entry, looked up): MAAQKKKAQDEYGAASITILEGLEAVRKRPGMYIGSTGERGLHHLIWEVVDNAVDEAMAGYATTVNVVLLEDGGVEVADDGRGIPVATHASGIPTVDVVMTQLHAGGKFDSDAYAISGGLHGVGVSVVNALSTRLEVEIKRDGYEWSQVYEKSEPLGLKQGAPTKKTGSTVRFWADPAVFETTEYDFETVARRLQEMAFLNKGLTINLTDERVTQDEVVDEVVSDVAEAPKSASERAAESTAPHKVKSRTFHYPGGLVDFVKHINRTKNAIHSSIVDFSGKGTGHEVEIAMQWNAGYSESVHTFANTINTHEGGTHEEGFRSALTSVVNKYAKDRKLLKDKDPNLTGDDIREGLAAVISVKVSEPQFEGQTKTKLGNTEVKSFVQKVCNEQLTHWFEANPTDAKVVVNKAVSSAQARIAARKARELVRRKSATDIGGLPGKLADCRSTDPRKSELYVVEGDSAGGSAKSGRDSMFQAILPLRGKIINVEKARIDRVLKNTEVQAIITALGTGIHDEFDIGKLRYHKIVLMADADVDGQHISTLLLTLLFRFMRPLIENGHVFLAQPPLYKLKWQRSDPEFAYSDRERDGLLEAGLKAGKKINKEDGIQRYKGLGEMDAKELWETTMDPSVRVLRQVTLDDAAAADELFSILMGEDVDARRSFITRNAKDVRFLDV
Sequence of UniProt P35372 (whole entry, looked up): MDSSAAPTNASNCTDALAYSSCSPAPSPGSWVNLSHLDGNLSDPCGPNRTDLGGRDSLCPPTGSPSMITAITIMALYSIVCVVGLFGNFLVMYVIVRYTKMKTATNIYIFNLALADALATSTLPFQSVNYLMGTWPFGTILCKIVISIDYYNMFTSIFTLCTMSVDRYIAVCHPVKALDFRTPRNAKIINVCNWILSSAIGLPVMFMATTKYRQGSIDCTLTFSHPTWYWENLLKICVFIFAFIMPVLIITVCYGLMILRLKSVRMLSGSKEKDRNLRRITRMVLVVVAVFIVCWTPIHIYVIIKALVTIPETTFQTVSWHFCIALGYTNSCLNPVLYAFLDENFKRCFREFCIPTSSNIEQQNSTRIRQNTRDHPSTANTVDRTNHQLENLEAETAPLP
Sequence of UniProt Q9EXR0 (whole entry, looked up): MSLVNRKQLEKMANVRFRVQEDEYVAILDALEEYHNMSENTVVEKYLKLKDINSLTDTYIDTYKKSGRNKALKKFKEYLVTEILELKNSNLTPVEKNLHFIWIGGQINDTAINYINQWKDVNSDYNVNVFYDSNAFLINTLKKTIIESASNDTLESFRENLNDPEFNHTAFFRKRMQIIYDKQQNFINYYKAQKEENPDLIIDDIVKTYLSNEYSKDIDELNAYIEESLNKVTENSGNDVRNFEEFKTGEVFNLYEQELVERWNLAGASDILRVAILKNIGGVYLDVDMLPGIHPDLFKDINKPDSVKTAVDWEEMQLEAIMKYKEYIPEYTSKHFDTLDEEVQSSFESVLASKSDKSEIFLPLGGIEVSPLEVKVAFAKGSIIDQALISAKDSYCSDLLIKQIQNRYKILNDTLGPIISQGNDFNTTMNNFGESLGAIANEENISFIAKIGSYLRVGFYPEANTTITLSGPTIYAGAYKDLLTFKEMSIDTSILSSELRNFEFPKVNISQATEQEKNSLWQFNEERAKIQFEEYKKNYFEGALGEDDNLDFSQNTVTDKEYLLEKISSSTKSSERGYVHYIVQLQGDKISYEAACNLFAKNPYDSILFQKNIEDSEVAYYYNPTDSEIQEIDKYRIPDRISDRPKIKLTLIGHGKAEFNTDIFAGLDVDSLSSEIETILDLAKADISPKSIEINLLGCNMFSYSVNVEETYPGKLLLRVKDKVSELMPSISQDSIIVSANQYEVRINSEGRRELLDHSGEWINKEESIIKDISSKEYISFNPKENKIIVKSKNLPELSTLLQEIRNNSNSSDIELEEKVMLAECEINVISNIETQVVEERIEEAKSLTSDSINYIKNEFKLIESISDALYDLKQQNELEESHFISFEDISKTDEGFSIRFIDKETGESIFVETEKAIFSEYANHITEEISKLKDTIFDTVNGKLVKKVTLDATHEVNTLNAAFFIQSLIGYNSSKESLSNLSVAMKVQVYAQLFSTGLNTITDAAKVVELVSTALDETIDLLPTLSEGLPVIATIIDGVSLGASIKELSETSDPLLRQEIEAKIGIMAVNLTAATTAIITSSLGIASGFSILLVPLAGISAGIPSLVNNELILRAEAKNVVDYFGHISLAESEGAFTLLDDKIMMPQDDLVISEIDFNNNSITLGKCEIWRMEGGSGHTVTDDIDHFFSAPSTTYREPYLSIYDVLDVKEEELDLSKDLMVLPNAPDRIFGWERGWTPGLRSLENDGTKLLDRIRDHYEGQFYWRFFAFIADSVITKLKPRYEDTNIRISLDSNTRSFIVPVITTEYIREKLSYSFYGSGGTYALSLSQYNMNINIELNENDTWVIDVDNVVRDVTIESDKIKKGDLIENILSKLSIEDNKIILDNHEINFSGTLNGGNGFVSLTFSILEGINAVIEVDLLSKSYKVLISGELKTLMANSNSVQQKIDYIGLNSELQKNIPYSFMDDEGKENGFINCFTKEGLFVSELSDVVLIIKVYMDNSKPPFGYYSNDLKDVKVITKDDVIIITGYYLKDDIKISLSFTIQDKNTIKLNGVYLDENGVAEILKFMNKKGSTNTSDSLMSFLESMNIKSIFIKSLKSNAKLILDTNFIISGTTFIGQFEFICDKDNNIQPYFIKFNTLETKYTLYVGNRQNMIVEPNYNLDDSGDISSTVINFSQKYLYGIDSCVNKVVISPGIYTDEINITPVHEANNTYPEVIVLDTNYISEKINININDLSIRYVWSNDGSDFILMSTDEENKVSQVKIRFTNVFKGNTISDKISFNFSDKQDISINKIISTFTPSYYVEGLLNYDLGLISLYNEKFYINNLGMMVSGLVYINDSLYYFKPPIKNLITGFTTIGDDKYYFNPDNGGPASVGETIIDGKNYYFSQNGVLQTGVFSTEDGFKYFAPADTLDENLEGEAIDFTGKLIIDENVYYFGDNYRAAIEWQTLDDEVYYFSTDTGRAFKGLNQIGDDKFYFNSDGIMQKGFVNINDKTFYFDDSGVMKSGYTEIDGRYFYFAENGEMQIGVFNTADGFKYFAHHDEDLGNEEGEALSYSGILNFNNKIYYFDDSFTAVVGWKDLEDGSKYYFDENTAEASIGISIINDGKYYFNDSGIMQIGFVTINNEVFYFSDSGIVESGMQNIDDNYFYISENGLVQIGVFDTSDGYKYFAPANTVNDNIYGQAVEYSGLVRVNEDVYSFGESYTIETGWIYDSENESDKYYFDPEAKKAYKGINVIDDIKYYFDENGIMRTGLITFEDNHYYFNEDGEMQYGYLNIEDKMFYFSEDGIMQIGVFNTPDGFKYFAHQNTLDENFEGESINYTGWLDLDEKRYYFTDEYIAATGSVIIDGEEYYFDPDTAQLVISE
Sequence of UniProt Q86UE8 (whole entry, looked up): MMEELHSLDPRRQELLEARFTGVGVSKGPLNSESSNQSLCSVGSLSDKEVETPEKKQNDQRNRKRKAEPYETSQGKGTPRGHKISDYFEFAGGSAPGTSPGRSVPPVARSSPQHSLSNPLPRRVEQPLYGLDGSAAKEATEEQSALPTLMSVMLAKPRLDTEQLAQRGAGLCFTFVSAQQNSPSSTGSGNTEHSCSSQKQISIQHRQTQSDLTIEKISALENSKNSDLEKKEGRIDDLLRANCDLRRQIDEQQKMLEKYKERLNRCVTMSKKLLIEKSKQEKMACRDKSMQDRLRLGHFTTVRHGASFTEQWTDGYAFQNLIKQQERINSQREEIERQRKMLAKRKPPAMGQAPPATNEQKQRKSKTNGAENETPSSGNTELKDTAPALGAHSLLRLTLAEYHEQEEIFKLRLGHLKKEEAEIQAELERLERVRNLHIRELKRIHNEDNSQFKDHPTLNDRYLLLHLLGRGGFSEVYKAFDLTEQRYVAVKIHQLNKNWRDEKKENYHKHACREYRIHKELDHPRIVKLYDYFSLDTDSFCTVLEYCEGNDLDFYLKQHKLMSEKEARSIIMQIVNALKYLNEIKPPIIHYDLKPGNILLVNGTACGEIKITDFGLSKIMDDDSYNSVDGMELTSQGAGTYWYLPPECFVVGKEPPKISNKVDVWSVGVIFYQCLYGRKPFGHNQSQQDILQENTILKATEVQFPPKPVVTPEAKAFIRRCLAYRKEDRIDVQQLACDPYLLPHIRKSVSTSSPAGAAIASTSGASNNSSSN

| SMILES | tested on | test | system | conditions | scale | quantity | result |
| --- | --- | --- | --- | --- | --- | --- | --- |
| O[C@H]1[C@H](O)[C@@H](O)CN2CC[C@H](O)[C@H]12 | Toxin B, glucosyltransferase domain (tcdB, Clostridioides difficile, UniProt Q9EXR0) | – | – | – | – | Ki | 3880 µM |
| COc1cc(Nc2ncc(F)c(Nc3ccc4c(n3)NC(=O)C(C)(C)O4)n2)cc(OC)c1OC | P2Y purinergic receptor | – | – | – | – | IC50 | > 10 µM |
| C[C@@H](O)[C@@H](CO)NC(=O)[C@@H](CCCNC(=N)N)NC(=O)[C@@H]1CCCN1C(=O)[C@@H]1CSSC[C@H](NC(=O)[C@H](Cc2ccccc2)NC(=O)CN2CCN(CC(=O)O)CCN(CC(=O)O)CCN(CC(=O)O)CC2)C(=O)N[C@@H](Cc2ccc(O)cc2)C(=O)N[C@@H](Cc2ccccc2)C(=O)N[C@@H](CCC(N)=O)C(=O)N[C@@H](CC(N)=O)C(=O)N1 [gallium-68 labelled] | – | – | healthy Wistar rat, thyroid | intravenous, 8 MBq, 60 min, individual animals | – | tissue uptake | 0.13 %ID/g |
| COc1ccc(-c2cn3c(n2)sc2cc(C(=O)NCCCN4CCCCCC4)ccc23)cc1 | Vero-E6 | CellTiter-Glo ATP | – | 72 h, retest 8-point duplicates | reference: DMSO 0%, hyamine -100%, more negative, more toxic | maximum response | -26.3% |
| O=C(O)CCc1c(C(=O)N2CCCC2)[nH]c2ccc(Cl)cc12 | gyrB with GyrA | inhibitor | – | – | – | IC50 | > 500 µM |
| C[C@H]1CN(c2n[nH]c3nc(N[C@H]4CC[C@H](NS(=O)(=O)CCC(F)(F)F)CC4)ncc23)CCO1 | TLK2 (Homo sapiens, UniProt Q86UE8) | biochemical | – | – | – | IC50 | ≥ 20 µM |
| C[C@@H]1N/C(=C\[N+](=O)[O-])N(Cc2ccc(Cl)nc2)[C@H]1C | – | radioligand binding | Musca domestica head membranes | added: [3H]imidacloprid | – | Ki | 0.0517 ± 0.0196 µM |
| CC1CCCN(CCCNC(=O)c2cc(Sc3ccc(F)cc3)nc3ccccc23)C1 (centres unmarked) | Vero-E6 | CellTiter-Glo ATP | – | concentration not given, 72 h, retest 8-point duplicates | reference: DMSO 0%, hyamine -100%, more negative, more toxic | cytotoxicity efficacy | 0% |
| O=C(CCc1c(C(=O)N2CCOCC2)[nH]c2ccc(Cl)cc12)N1CCOCC1 | gyrB with GyrA | inhibitor | – | – | – | IC50 | > 500 µM |
| CC[C@@H](c1cccc(O)c1)[C@@H](C)CN(C)C | OPRM1 (Homo sapiens, UniProt P35372) | agonist | human cells | WT receptor, receptor depletion by β-CNA | – | EC50 | 2.51 µM |
| COc1ccc(NC(=O)N2CCCCN3[C@H](CN(C)C)[C@H](c4ccc(C#Cc5ccccc5)cc4)[C@@H]3C2)cc1 | Toxoplasma gondii | parasite growth, luciferase reporter | HFF host cells, tachyzoites | 72 h | – | EC50 | 0.11 µM |

Excerpt of the above:
| SMILES | tested on | test | system | conditions | scale | quantity | result |
| --- | --- | --- | --- | --- | --- | --- | --- |
| O=C(CCc1c(C(=O)N2CCOCC2)[nH]c2ccc(Cl)cc12)N1CCOCC1 | gyrB with GyrA | inhibitor | – | – | – | IC50 | > 500 µM |
